Results from different studies.
Each line is one published result; not all experiments were run side by side.

N#Cc1c[nH]c2c(C(=O)N3CCN(CCc4ccc(F)cc4)CC3)cnn12 — solubility (shake flask; aqueous buffer; pH 6.8): 226 µM
O=C(NCCNCCO)c1cn(Cc2ccccc2)c2c(Cl)c(OCc3ccc(C(F)(F)F)cc3)c(Cl)cc2c1=O — solubility (shake flask; PBS; 24 h, pH 6.5, 25 °C): < 5 µM
CCc1cnc(NC(=O)c2cc(S(=O)(=O)N3CCOCC3)ccc2N(C)CC2CC2)s1 — solubility (aqueous buffer; pH 7.4): 14.2 µM
COc1ccc2c(O)c(C(=O)Nc3ccc(CN)cc3)ccc2c1 — solubility (PBS; pH 7.4): 254 µM
COc1ccccc1CNC(=O)CCn1c(=O)[nH]c2ccsc2c1=O — solubility (aqueous buffer; pH 6.5): 80 µM
CC(C)CCCC(C)CCCC(C)CCOC1OC[C@H](O)[C@H](O)[C@H]1O (stereo partly drawn) — solubility (water): 27.3 µM
O=C(/C=C(O)/C=C/c1cccs1)/C=C/c1cccs1 — solubility (shake flask; aqueous buffer; 90 min, pH 6.8, 37 °C): 10.7 µM
CC(=O)N[C@@H](CCC(N)=O)C(=O)N[C@@H](CCC(N)=O)C(=O)N[C@@H](CCCCN)C(=O)N[C@@H](Cc1ccccc1)C(=O)N[C@@H](CCC(N)=O)C(=O)N[C@@H](Cc1ccccc1)C(=O)N[C@@H](CCC(N)=O)C(=O)N[C@@H](Cc1ccccc1)C(=O)N[C@@H](CCC(=O)O)C(=O)N[C@@H](CCC(N)=O)C(=O)N[C@@H](CCC(N)=O)C(N)=O — solubility (water): ≥ 60000 µM
CC(C)=CCC[C@](C)(O)[C@H]1CC[C@]2(C)[C@@H]1[C@H](O)C[C@@H]1[C@@]3(C)CC[C@H](O)C(C)(C)[C@@H]3CC[C@]12C — solubility (water; 72 h, 25 °C): 3.68e-05 mg/mL
CC12N3Cc4c(OCCCS(=O)(=O)[O-])ccc(OCCCS(=O)(=O)[O-])c4CN1C(=O)N1CN4C(=O)N5CN6C(=O)N7Cc8c(OCCCS(=O)(=O)[O-])ccc(OCCCS(=O)(=O)[O-])c8CN8C(=O)N(CN9C(=O)N(CN(C3=O)C12C)C4C95)C6(C)C87C.[Na+].[Na+].[Na+].[Na+] (stereo not drawn) — solubility (NMR; aqueous buffer): 102000 µM
O=C1CCCCC(=O)Nc2ccc3oc(cc3c2)CNCc2cccc(c2)CNCc2cc3cc(ccc3o2)N1 — solubility (aqueous buffer; pH 7.4): 22 µM
C[C@H](CCC(=O)NCCc1ccc(-c2ccccc2)cc1)[C@H]1CC[C@H]2[C@@H]3CC[C@@H]4CC(=O)CC[C@]4(C)[C@H]3CC[C@]12C — solubility (simulated gastric fluid; 48 h, pH 1, 25 °C, acidic): 9 µM
CCC(C)n1c(C(=O)Nc2cnc(C(=O)NC)n(CC(C)C)c2=O)ncc(NC(=O)c2ncc(NC(=O)c3ccccc3)c(=O)n2Cc2ccc(OC)cc2)c1=O (stereo not drawn) — solubility (PBS; 24 h, pH 7.4, 25 °C): 8 µM
C=C1C[C@@]23CC[C@H]4[C@@](C)(CCC[C@@]4(C)C(=O)O[C@@H]4O[C@H](CO)[C@@H](O)[C@H](O)[C@H]4O)[C@@H]2CC[C@]1(O[C@@H]1O[C@H](CO[C@H]2O[C@H](CO)[C@@H](O)[C@H](O)[C@H]2O)[C@@H](O)[C@H](O)[C@H]1O[C@@H]1O[C@H](CO)[C@@H](O)[C@H](O)[C@H]1O)C3 — solubility (water; 24 h): 406 mg/mL
COc1cc(C)c(-c2ccc(O)c3c2C[C@@H](C)N[C@@H]3C)c2cccc(O)c12 (single isomer, unassigned) — solubility (shake flask; PBS; 24 h, pH 6.5, 25 °C): 180 µM
C=C(C)C(=O)Nc1ccc(-c2c(-c3ccc(Oc4nccc(C)n4)cc3)c3c(N)ncnc3n2C)cc1 — solubility (FaSSIF): 12 µM
CC(C)=CCCC(C)(O)C1CCC2(C)C1C(O)CC1C3(C)CCC(OC4OC(COC(=O)CCCCCCCCCCN5C(=O)C=CC5=O)C(O)C(OC(=O)CCCCCCCCCCN5C(=O)C=CC5=O)C4O)C(C)(C)C3CCC12C (stereo not drawn) — solubility (water; 24 h, 37 °C): 0.163 mg/mL
C[N+](C)(C)CCO.O=C(O)[C@@H](O)Cc1ccccc1.O=C([O-])[C@@H](O)Cc1ccccc1 — solubility (water): 1250 mg/mL

For quick reference, copied from above:
COc1ccccc1CNC(=O)CCn1c(=O)[nH]c2ccsc2c1=O — solubility (aqueous buffer; pH 6.5): 80 µM
CC(C)CCCC(C)CCCC(C)CCOC1OC[C@H](O)[C@H](O)[C@H]1O (stereo partly drawn) — solubility (water): 27.3 µM
O=C(/C=C(O)/C=C/c1cccs1)/C=C/c1cccs1 — solubility (shake flask; aqueous buffer; 90 min, pH 6.8, 37 °C): 10.7 µM
